# Measured values from different studies.
# Numbered parts are unrelated; each lists some results of a single study.

# Sample 1 — method: RNA Bind-n-Seq; form: RNA; medium: in vitro; concentration: 200 nM; setting: whole 134-nt RNA, ends assumed; together with: 150 mM KCl; reference: input library; reading: higher = stronger binding
# Target: Ras GTPase-activating protein-binding protein 1, full length (G3BP1, Homo sapiens, UniProt Q13283)
# Sequence of UniProt Q13283 (whole entry, looked up): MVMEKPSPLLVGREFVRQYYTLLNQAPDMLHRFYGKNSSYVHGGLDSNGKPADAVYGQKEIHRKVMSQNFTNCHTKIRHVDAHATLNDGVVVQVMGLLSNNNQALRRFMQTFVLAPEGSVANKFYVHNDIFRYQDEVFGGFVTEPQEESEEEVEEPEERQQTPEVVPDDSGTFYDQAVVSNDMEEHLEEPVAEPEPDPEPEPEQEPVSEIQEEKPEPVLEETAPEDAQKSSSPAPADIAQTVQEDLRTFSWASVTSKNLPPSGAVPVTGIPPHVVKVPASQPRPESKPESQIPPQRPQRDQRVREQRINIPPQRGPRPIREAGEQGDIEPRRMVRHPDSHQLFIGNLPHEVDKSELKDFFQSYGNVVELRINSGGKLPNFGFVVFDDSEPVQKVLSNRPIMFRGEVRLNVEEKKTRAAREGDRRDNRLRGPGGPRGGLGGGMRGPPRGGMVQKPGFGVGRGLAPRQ
Oligonucleotide,log2 enrichment
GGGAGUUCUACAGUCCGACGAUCCCUCUGGACGAGACCAGCCAGAUGAGCGACCUCCCGGUGAAGGUGAUCCACGUGGAGAGUGGGAAGAUCCUCACAGGCACAGAUGCCCCCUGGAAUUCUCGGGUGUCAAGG,0.645
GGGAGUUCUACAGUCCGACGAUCACCAAAAAGGUGGGCAUCUUUGGGAAGUGGGGCAAGGGGGGGAUAGGGAGGGGGGUAACACUUUGGGAACAGGUGGUCCCAGGUCGUUUCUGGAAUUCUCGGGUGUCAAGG,1.1
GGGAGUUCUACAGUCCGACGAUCUCAAGUCCUGUGCUACACAUCGUAUGUACCGAAUCGGAAGGGGAAGGGAAGGGGAAAGUAUUAUGUUACGCCGUUCGGAUCUGCACUUCCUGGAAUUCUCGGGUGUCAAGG,1.25
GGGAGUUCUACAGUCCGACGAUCCAAGUCCUGUGCUACACAUCGUAUGUACCGAAUCGGUUUGGUUUUUGGAAAAAGGAAAGUAUUAUGUUACGCCGUUCGGAUCUGCACUUCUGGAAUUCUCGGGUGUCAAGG,-0.697
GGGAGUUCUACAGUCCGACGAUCCUGUGCUACACAUCGUAUGUACCGAAUCGGUUUUUUUGGGGUUUUUUUGGUUUUUUUGGGGAAAGUAUUAUGUUACGCCGUUCGGAUCUGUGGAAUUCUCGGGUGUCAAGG,-1.16
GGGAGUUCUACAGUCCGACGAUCAAGUCCUGUGCUACACAUCGUAUGUACCGAAUCGGGGUUUGGGGUUUGGGGUUUGGAAAGUAUUAUGUUACGCCGUUCGGAUCUGCACUUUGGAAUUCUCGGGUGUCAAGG,-0.248
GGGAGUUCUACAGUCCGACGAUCUCCUGCCAACCUCUCUUAAUGCUCUGAGAGCCUCUGGUGUUGACAUAGAAGAGGAAACGGAGAAGAACCUGGAAAAGGUACAGACUAUCAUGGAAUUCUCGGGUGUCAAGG,-1.52
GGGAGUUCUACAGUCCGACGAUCUCAAGUCCUGUGCUACACAUCGUAUGUACCGAAUCGGGAAAGGGAAAGGGAGGGAAAGUAUUAUGUUACGCCGUUCGGAUCUGCACUUCCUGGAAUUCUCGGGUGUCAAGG,0.999
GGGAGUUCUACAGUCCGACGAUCCCUGUGCUACACAUCGUAUGUACCGAAUCGGGGAAAAAAGGGAAAAAAGGGGAAAAAAGGAAAGUAUUAUGUUACGCCGUUCGGAUCUGCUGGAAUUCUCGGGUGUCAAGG,-0.34

# Sample 2 — method: EMSA with sequencing; form: double-stranded DNA, one strand shown; medium: in vitro; concentration: 10 and 20 nM; reference: negative control set to 0; reading: higher = stronger binding
# Target: Hepatocyte nuclear factor 3-alpha (Foxa1, Mus musculus, UniProt P35582, residues 1-468, full length assumed)
# Setting: whole designed probe, mean of two concentrations, ends assumed
# Residues (chain): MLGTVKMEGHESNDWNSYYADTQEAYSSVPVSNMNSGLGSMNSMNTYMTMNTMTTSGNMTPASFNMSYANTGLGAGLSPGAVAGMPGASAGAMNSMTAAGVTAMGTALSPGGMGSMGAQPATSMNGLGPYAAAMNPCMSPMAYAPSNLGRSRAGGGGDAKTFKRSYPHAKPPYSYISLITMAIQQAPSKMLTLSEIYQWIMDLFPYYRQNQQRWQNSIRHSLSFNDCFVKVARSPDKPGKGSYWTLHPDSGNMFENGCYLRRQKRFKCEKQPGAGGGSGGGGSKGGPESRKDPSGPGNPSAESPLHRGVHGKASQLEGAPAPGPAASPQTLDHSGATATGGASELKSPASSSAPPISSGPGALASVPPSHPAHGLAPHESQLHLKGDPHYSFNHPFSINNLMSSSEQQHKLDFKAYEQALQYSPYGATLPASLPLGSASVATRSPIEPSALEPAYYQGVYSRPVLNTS
Oligonucleotide,normalised bound fraction
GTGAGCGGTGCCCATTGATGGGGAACGAGCTGCTTGCAATTGAGTTGTATGTATGCTTCCACTTAATACGTCCTGCCGAGCCTGTAAGCCACTTCCGGCCAACAGGAATCTGCCCTCTGTGTTTACCTACTCTCTTTTTATGTCTTATTCCCAGAATGACTGGGGACCAAAGGAATCCTTTGCAGGAGTTTTCTCCAGACAGACAGTTCCACATGCTAGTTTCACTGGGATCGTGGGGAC,0.232 ratio
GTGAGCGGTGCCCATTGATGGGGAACTCTGGATTTTTGGTACCATGTGGTTCTCAGGGCCTCCAAATAAAGTCAATCTGATTAGCACTGATCACCCAAATAATAAAAAAATTAGTACTTGTTTACTTTTTTAGGGAGGAATTCTCTTTATTTTCCCCCATCCCACATCTTTTTAATTGTCAGCTCTTTTAAAAATTATAAAAGTGCCAGTTGGCCATCTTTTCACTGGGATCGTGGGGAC,0.412 ratio
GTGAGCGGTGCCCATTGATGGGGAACGCAGGTCCTGGAATCTGTCAGGGGTGGGACTCTGCCATCTTGTGGTTCAATAAGCTCTCCAGATGATTCTGATGCACATGTTTGAGAGCCACTTGTTTACATATAGCAGAGAAACCACCTGTCTCTCACCTCAAAGCTGACTCACCTGCAGAAACAATGAAAGATGATAATGACAGCCCCCCCAAAATACCTCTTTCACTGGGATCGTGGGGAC,0.349 ratio
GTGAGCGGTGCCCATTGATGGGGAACCCGCCCGCGCGGGGCTTTGCTCCGCGGGAATTAAAGGAAGGAGAAATGTTAGTACACTTTTAATTGGAAACCGAGTTCTTCTTTCAGAGCGGCTTGTTTACTCAGGATTGGGCATTAGAACTCAGGGGAGGCTCTAATTGAAGTGACGGCTTTGGAGATTATGGGGAACATATGGCCCTACCGCCGGGCTCTTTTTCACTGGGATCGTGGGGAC,0.342 ratio
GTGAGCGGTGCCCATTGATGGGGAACTGCTGGACCCCGGGCATAGGGAGCCCTTGCTGCTTCTCCACCCACCAGTGCTGAGCTCCGGGGGTGTTTGCCTTGCAGGTCCAAGGTGAGAATGTAAACACTGCAATTCCTCTGAAAACTGGCTGGAACCTCCTCCAGGGAGGAAGGGTTGCTCATGGGCTGGCCAGGCTCCCAAACATCATACACAGCAACCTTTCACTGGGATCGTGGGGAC,0.333 ratio

# Sample 3 — method: protein-binding microarray; form: double-stranded DNA, one strand shown; medium: in vitro; concentration: 250 nM; setting: 60-bp whole probe; together with: salmon DNA 0.4 mg/ml; reference: random background probes; reading: higher = stronger binding; shared flanks, not repeated: GCCTAGCAC … GTCTTGATTCGCTTGACGCTGCTG
# Target: Interferon regulatory factor 5, full length, phosphomimetic (IRF5, Homo sapiens, UniProt Q13568-2, residues 1-514, K96S/S451D/S453D/S456D/S462D)
Oligonucleotide,log fluorescence [z-score]
TCACGTCTGATTTTGCTACTGTGCTAG,0.366
TTAGGACTTGGTATCGGTTAGTGCTAG,6.95
GACGGTATCCGTCTCCTGACGTGCTAG,-0.102
TTAGGTCTTCTACTGCTTTAGTGCTAG,0.0569
TTGGGTCTCCTTCTCCTTTAGTGCTAG,-0.314
TTAGATTTCAGTTCCGATGAGTGCTAG,2.38
GACGGTTTCGGACTGGGGGCGTGCTAG,4.81
GACGGTTTCGGGTATCGGGAAGTGCTA,8.65
GACGGTCTCGGTATCGGCACGTGCTAG,1.5
GACGATATCGGGACTGTAGACGTGCTA,1.02
TTAGATCTCAGTATGGATTAGTGCTAG,-0.00805
GACGATACCGGGACTGGAGACGTGCTA,0.207
TCAGTTATAATATTATTACTGTGCTAG,0.816
GACGGACTGGGGACTCGGGACGTGCTA,-0.643
GACGGTTTGGGGTTTCGGGACGTGCTA,1.52
CTAGGTATCGACTTTCGGTTAGTGCTA,10.1
GACGGTATCGGTCTCGGAACGTGCTAG,5.65
TTAGGTTTCGGTTCCGTTTAGTGCTAG,10
GACGGGCTCCTACTGCTGACGTGCTAG,-0.526

# Sample 4 — method: RNA Bind-n-Seq; form: RNA; medium: in vitro; concentration: 365 nM; reference: no-protein control; reading: higher = stronger binding
# Target: RNA binding protein fox-1 homolog 2, RRM domain, GST-SBP tag (RBFOX2, Homo sapiens, UniProt O43251-10, residues 100-194)
# Setting: natural RNA segment, single round, ends assumed
# Residues (chain): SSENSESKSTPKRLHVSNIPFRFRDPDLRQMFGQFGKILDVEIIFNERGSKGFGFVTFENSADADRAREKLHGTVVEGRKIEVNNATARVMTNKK
Oligonucleotide,RBNS enrichment (R)
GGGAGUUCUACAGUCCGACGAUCUUUUAUGUGAACUUUUUUAAUGUCUUUAAUUUGGAUUUUUUUUUUUUUUAGUAUUUUAACAUUUAUUUUAAUCCUGAAGACACUUUUUUGAUUGUGUUUCGUAAGAGACAUGGAAUUCUCGGGUGCCAA,3.3
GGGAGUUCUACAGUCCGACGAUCUUGUCUGAUGCUCAUGCCCCACUCAGAGAAAAGACACCAGCAAAUUAAGGAUUUUCUGGGUUCCUGUGACCCUCAGGUUAUUUUAAAGCAAUUGGAAGAGCAUAUGAACAUGGAAUUCUCGGGUGCCAA,0.332
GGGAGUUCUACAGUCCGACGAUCUCUGUAAAAGGCUGCAUAAAUGUUAGUUGGCACAUAAAGACAAUUGUAGAAGUUGAAAAAUGAUUGCUAUAUUUCAAUGUUUAUUCCCACUCAACAUACUGCCUUCUAAGUGGAAUUCUCGGGUGCCAA,0.724
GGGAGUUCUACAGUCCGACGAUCUGGCUUCCAUGAAUCAGUACUGUUGUUAAAAGCAGAGCUCUGCUGUUAAGAGGUUCUGUUUCUAAGGGACUGCUGAGUUAGAUUAGUAUAUACGUGGCAGUAGUUCAGCAUGGAAUUCUCGGGUGCCAA,5.66
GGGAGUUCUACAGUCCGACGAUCAUUCUAUCACAGCACAGCAGGUCGAGAGUUAACACCUGGAUGACAUGGUGGUGGAUAUUUGGGUCUGUGAAAUCUGAAAAAAACAAAGGUCUAUUCGGAUUGCAUAGGGGUGGAAUUCUCGGGUGCCAA,1.01
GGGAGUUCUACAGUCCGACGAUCUGGUUUAUUUUUAGUGCUAUUUUGUUAUAUGAUUGCCAUUGAAAAUAAUAAAAAGAAUGUUGGUUUCAUUCGCCCUUUUUUUUUAAACCUUUUAAAAAAGACAGUAGUGUUGGAAUUCUCGGGUGCCAA,0.434
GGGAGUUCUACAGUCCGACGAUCGUAGUCAUAGACAUAGAUACUGCAGCCUGCCCUCCUCUUGAGGCUGUUUCUGACAAACUAUCAAGACAUUCCGUCCCUCAUCCACCUCAGCUCCCAAAGGCCCACUGCAGUGGAAUUCUCGGGUGCCAA,0.334
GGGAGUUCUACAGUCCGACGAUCGAACCUGCUUCCUCUCCCUUCCAAAGACAGUGACAGCUGACUGAGGGCAAAGAGCAGGCACCACUCAGAACGUGGUGAGUACAGCUCAGCUCAGCACUCAGUCAGUGGUAUGGAAUUCUCGGGUGCCAA,0.636

# A few entries again (sample 3):
Oligonucleotide,log fluorescence [z-score]
GACGGTTTGGGGTTTCGGGACGTGCTA,1.52
GACGGGCTCCTACTGCTGACGTGCTAG,-0.526
TTAGGACTTGGTATCGGTTAGTGCTAG,6.95
GACGATATCGGGACTGTAGACGTGCTA,1.02
